Measured values pooled from the literature.
A part holds a random share of what one study measured.

Block 1
Target: RNA binding protein fox-1 homolog 2, RRM domain, GST-SBP tag (RBFOX2, Homo sapiens, UniProt O43251-10, residues 100-194)
Method: RNA Bind-n-Seq
Molecule type: RNA
Medium: in vitro
Tested at: 365 nM
Setting: natural RNA segment, single round, ends assumed
Baseline: no-protein control
Direction: higher = stronger binding
Construct (chain): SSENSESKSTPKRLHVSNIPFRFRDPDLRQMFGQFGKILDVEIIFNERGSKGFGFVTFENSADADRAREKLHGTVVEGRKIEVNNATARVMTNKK
Strand | RBNS enrichment (R)
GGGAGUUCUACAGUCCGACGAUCCUGAAAUUAUUCUGAAACACUUCUUGUCACAAGAAUUUCAGCAAAGUACAGUCAACCUAUCAGAGAGACAAGGGUGAUGCCCCGGUGAGUGUGUCUCAGCUGUGUUUAUGUGGAAUUCUCGGGUGCCAA | 0.653
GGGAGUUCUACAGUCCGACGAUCGCAUAACCAUUUGUAUAAUGAGAAAUCUAGGGGAAAACCAAUCAGUCCAACAUGAGAUUUUAGGAAUAGAAAUUUGCCGGCCAUUUGGAAAGUGAAAUGCCACUUAGUUCUGGAAUUCUCGGGUGCCAA | 0.847
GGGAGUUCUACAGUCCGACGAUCUGAAUUAAUCUUUUCUCUUAAUUUUUAUUAUGUACUAGUUGUAUUAAAGCUAAUGUGUUUACUUUUUCCUCUUGUGGAUUUGUAGCUGUUUAAAAUUUCAGGUGAAUUUCUGGAAUUCUCGGGUGCCAA | 0.809
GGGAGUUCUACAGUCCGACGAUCCGUGCCCUGGAGAGGUCUUGGGUGAAAACUUGACCUUGAAGAAACCAAUCACAAAAGCGGCGUUGGGUCAGGGCUAGGCUUAGAGGUGAAGCAUCAACAUGGAACCAUCUUGGAAUUCUCGGGUGCCAA | 0.301
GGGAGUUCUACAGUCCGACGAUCGCUUCUGCCUCUCCUGCCCUGAAAAGGAGGAAUGAUUGGGGCCAGCAACUUUGCUCUCCCUGCCGUGCCUCGGUGGUGCUCCUGAAUGUGGCUGACCUGGGCUGCUGGUUUGGAAUUCUCGGGUGCCAA | 0.478
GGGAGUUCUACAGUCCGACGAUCAGGGAGGGAGACUCCUUGUCCCAGACCUCAGUCCUGCUUCCAACUGCCUUCCUUGCCCUCACUGUUCUGGGGUGGGGGACAUCCCCGGGGAUCCCUGAGAAGAGUGUCCUUGGAAUUCUCGGGUGCCAA | 0.593
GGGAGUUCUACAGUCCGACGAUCUCACAUGUUCUGAGUAUGGAACCUCAUCUGUGUUGCUUUUUCUUUCUCUGUGUCCUCACUGUGGGGCUGAGGUCUCAGGGGCUCCCCUCUGCUAAGGUUCCUUCCCUUUGUGGAAUUCUCGGGUGCCAA | 0.405
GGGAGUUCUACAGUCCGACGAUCCACCACAGAUUAUGUUGACGUAUUUUCUUCUGUAUUUUCUUGGUGGGACUUGAGAUUUGAGGAAAAAAGAUGCUUAUUUGGAAUUUCUAUUAAGAACUAUCCUUGUUAUUUGGAAUUCUCGGGUGCCAA | 0.438

Block 2
Target: Sal-like protein 4, full length isoform B (SALL4, Homo sapiens, UniProt Q9UJQ4-2, residues 1-616)
Method: universal PBM
Molecule type: double-stranded DNA, one strand shown
Medium: in vitro
Tested at: not given
Setting: 8-mer, flanks averaged, mean of replicates
Direction: higher = stronger binding
Construct (chain): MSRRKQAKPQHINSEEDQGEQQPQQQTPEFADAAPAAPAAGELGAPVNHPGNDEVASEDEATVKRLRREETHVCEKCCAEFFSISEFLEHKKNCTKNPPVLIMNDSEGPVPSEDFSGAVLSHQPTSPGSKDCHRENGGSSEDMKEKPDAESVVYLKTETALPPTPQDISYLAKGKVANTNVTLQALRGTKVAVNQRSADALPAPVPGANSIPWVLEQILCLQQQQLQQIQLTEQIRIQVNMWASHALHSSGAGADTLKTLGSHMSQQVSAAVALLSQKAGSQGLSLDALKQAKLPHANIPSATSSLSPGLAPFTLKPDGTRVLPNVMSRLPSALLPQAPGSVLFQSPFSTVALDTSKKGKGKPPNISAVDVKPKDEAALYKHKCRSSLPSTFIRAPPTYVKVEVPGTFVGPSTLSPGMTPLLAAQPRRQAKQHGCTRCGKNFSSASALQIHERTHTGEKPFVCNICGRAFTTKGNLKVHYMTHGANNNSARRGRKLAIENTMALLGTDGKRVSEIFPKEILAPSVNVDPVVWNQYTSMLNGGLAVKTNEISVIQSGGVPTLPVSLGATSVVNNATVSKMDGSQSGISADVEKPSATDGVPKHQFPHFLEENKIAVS
Strand | E-score
CCACCAGC | -0.133
CTACCCCC | -0.0745
GTTACTTA | 0.159
ATCACCGA | 0.0801
GTTGGCGA | -0.0929
ATTCCAAT | 0.237
CGGAGGAA | -0.293
ACTATTCA | 0.219
CGAATGCC | -0.203
CGGCTACC | -0.316
CCGGAACG | -0.228
CTGAGGGA | -0.194
AGTGTAGA | 0.0198
ACGGTTGG | -0.131
ACCGAAAA | 0.211
GTAATGTA | 0.253
GCACTGAC | -0.111
ATTCGACG | 0.0338
GCGGCGAA | -0.26
ACGCGTAA | 0.0793
AAGTGGGG | -0.0862
ACGAGTCG | -0.168

Block 3
Target: Fragile X messenger ribonucleoprotein 1, C-terminal low-complexity region (Fmr1, Mus musculus, UniProt P35922)
Method: RNA Bind-n-Seq
Molecule type: RNA
Medium: in vitro
Tested at: 200 nM
Setting: whole 134-nt RNA, ends assumed
With: 150 mM LiCl
Baseline: input library
Direction: higher = stronger binding
Each molecule: 7-deaza-guanosine replaces G
Strand | log2 enrichment
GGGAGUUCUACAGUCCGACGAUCUCCUGUGCUACACAUCGUAUGUACCGAAUCGGAAAAAAGGGAAAAAAGGGGAAAAAAGGGAAAGUAUUAUGUUACGCCGUUCGGAUCUGCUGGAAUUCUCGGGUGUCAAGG | -0.793
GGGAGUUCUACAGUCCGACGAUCAACACUCAAACCACCAUCAAGCUUUUCCAGGAAUGCUGUCCUCAUUCCACUGACAGAGUUGUUCUUAUUGGAGGAAAACCCGAUAGGGUUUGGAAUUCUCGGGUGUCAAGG | 1.19
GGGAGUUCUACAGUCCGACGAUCUAACUUUAGAGGAGGAUCUGAUGGAUAUGGCAGUGGACGUGGAUUUUGGGAUGGCUAUAAUGGGUAUGGAGGAGGACCUGGAGGUGGCAAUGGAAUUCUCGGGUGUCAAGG | -0.0126
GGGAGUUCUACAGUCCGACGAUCUCAAGUCCUGUGCUACACAUCGUAUGUACCGAAUCGGAGGUUUGGAAAAAAAGGAAAGUAUUAUGUUACGCCGUUCGGAUCUGCACUUCCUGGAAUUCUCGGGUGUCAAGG | -1.66
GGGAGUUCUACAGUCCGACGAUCUGGGAGGUGGAUUUUGUUUAUUUUUUUAGCUCGUUUCCAGGGGUGGGAAUUUUUUUUUAAUAUGUGUCAUGAAUAAAGUUGUUUUUGAAAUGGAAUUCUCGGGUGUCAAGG | 0.609
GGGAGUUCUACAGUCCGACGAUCACCAUGCAGGUGGGCAUCUUUGGGAAGUGGGGCAAGGGGGGGAUAGGGAGGGGGGUAACAUUUUGGGAACAGGUGGUCCCAGGUCGUUUCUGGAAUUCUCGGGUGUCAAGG | 1.61
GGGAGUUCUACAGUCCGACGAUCCACAGACAACACGCACCCACACUGACACAGAGGGAAGGGGUUGGGAUGGGGACAGGGUGCACAGCAGGGCGGGGUAGGACCCCAGCCCCUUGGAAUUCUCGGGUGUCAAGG | 0.522
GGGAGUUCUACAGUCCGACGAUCUCAAGUCCUGUGCUACACAUCGUAUGUACCGAAUCGGGCCGGCCGGGGCCGGGGAAAGUAUUAUGUUACGCCGUUCGGAUCUGCACUUCCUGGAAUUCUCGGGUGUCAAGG | -0.26

Block 4
Target: Centromere-binding protein 1, full length, N-terminal tag (CBF1, Saccharomyces cerevisiae, UniProt P17106, residues 1-351)
Chain of UniProt P17106 (whole entry, looked up): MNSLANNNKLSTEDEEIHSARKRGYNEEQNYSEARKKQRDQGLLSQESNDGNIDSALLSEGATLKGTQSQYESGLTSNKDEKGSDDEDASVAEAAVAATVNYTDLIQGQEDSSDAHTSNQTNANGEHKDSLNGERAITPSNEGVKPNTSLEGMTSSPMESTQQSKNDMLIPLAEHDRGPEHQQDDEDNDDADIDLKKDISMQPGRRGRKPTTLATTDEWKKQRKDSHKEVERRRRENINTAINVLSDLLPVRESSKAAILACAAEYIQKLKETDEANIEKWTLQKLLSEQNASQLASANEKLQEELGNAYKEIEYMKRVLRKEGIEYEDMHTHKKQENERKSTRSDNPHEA
Method: protein-binding microarray
Molecule type: double-stranded DNA, one strand shown
Medium: in vitro
Tested at: 0.8 µM
Setting: whole 60-bp probe, no competitor
Direction: higher = stronger binding
Strand | fluorescence intensity
GAACTATATATAGGTCATGTGACTACCGAAGAATAGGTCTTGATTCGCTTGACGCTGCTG | 17000 a.u.
CTATTTAGTGATCTAGCCGTGACCTTGGCAGCATTCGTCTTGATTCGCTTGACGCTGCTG | 660 a.u.
GAACTTGAATGATATTTCACATGGTGGATGCCATAGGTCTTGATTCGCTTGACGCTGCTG | 580 a.u.
CCTAACTACTATATTGTCACCAGATAGCTTCGTACAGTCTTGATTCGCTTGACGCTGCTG | 541 a.u.
GAAAACTAGGCATGCCACCAGATTTTGGTGATGTAGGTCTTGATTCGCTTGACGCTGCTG | 532 a.u.
CTACCCTGTCGCCATCACCAAGGGTTTCTGCCATTCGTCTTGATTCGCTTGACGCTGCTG | 478 a.u.
CTACTCGTAATGCATCAGATTCTGGTCATGCTTTTCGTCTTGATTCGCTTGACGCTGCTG | 901 a.u.
GAAGATGAATCCTGGCACGGGTTTGATTCTGATTAGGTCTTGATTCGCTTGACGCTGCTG | 670 a.u.
GAAAGTTGAGTTCGTCACCAACCGTCCCTCGACTAGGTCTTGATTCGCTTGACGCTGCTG | 494 a.u.
CTAGAAAAAATGTACCACGCGAAGTTAAGTGTCTTCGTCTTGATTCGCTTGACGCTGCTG | 540 a.u.
GAATTCCATTATCATCACGTGTAGCGTTTCTGCTAGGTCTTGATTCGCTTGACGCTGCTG | 7340 a.u.
CTAAACAAGAAACGTGACGGTACTCATAAAGCTTTCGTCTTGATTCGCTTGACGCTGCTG | 1900 a.u.
TGTACGAAGCTATCTCGTGATACTATAGTAGTTAGGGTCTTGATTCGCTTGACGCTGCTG | 1400 a.u.
CTATAATTGTGCCTTCATGTGCCAAGTAAATTGTTCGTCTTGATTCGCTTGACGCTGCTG | 699 a.u.
CCTAACTACTATATATACACCACATAGCTTCGTACAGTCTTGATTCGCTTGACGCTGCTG | 564 a.u.
GAATAATTTCTTGAGCACGAACTCGAAGCGTTTTAGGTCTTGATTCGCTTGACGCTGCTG | 548 a.u.
GAATTTTCTCAACGTGACTGGAGTAACGTAATATAGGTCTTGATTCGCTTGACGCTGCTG | 3360 a.u.
GAAATTAAGCCGCACGTGCTCGCCGCAGATGTTTAGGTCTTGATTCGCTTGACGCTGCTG | 12400 a.u.
CTATCAGGTGTATATCACGTGCTCAAACCAGCGTTCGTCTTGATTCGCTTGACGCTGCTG | 17200 a.u.

Repeated from above (block 2):
Strand | E-score
GTTGGCGA | -0.0929
ATTCCAAT | 0.237
CGGAGGAA | -0.293
ACTATTCA | 0.219
